Measured values gathered from unrelated publications.
Protocols differ between the studies behind these lines. ± gives the spread as reported.
Cell line: RAW264.7

Compound = Cc1ccc(C(C)C)c(OC(=O)CSc2nnc(Cn3cnc4c3c(=O)n(C)c(=O)n4C)o2)c1; assay = cell growth or viability, MTT; conditions = 50 µM, 24 h; measurement = viability; value = 93%
Compound = COC1=C[C@@H]2[C@@H]3Cc4c(Br)cc(OC)c(OC(=O)c5nc(C)c(C)nc5C)c4[C@]2(CCN3C)CC1=O; assay = cytotoxicity, MTT; conditions = 24 h; measurement = IC50; value = 21.9 ± 3.51 µM
Compound = O=C(/C=C/CI)O[C@@H]1COC(=O)C1; assay = cytotoxicity; measurement = IC50; value = 23 µM
Compound = CNCC(=O)Oc1c(OC)ccc2c1[C@@]13CCN(C)[C@@H](C2)[C@H]1C=C(OC)C(=O)C3; assay = cytotoxicity, MTT; conditions = 24 h; measurement = IC50; value = > 100 µM
Compound = C=CCc1ccc(OC(=O)Cn2cnc3c2c(=O)n(C)c(=O)n3C)c(OC)c1; assay = cell growth or viability, MTT; conditions = 50 µM, 24 h; measurement = viability; value = 93%
Compound = COc1ccc(-n2cc(C(=O)N3C[C@]4(OC(=O)c5ccccc5NC(C)=O)CC[C@H](OC)[C@@]56[C@@H]4C[C@@H]([C@@H]35)[C@@]3(O)C[C@H](OC)[C@H]4C[C@@H]6[C@]3(O)[C@H]4OC)nn2)cc1; assay = MTT; conditions = 7.5 to 120 µM; measurement = cytotoxicity; value = not toxic
Compound = N=C(N)NCCC[C@@H](NC(=O)[C@H](N)Cc1c[nH]c2ccccc12)C(=O)N[C@H](CCCCN)C(=O)N[C@H](Cc1c[nH]c2ccccc12)C(=O)N[C@H](CCCNC(=N)N)C(=O)N[C@H](CCCCN)C(=O)N[C@H](Cc1c[nH]c2ccccc12)C(=O)N[C@H](CCCNC(=N)N)C(=O)N[C@H](CCCCN)C(=O)N[C@H](Cc1c[nH]c2ccccc12)C(=O)N[C@H](CCCNC(=N)N)C(=O)N[C@H](CCCCN)C(N)=O; assay = cytotoxicity, MTT; conditions = 24 h; measurement = IC50; value = 128 µM
Compound = CCCCC/C=C\C/C=C\CCCCCCCC(=O)OC[C@H](CO[C@@H]1O[C@H](CO)[C@H](O)[C@H](O)[C@H]1O)OC(=O)CCCCCCC/C=C\C/C=C\CCCCC; assay = cell viability, MTT; system = serum-free medium; conditions = 20 h; measurement = LD50; value = > 20 µM
Compound = COC1=C[C@@H]2[C@@H]3Cc4ccc(OC)c(OC(=O)c5ccnnc5)c4[C@]2(CCN3C)CC1=O; assay = cytotoxicity, MTT; conditions = 24 h; measurement = IC50; value = > 100 µM
Compound = CC/C=C\C/C=C\C/C=C\CCCCCCCC(=O)OC[C@H](CO[C@@H]1O[C@H](CO)[C@H](O)[C@H](O)[C@H]1O)OC(=O)CCCCCCC/C=C\C/C=C\C/C=C\CC; assay = cell viability, MTT; system = serum-free medium; conditions = 20 h; measurement = LD50; value = > 20 µM
Compound = COC1=C[C@@H]2[C@@H]3Cc4ccc(OC)c(OC(=O)CNC(=O)OC(C)(C)C)c4[C@]2(CCN3C)CC1=O; assay = cytotoxicity, MTT; conditions = 24 h; measurement = IC50; value = > 100 µM
Compound = Cn1c(=O)c2c(ncn2CC(=O)N/N=C/C=Cc2ccccc2)n(C)c1=O; assay = cell growth or viability, MTT; conditions = 50 µM, 24 h; measurement = viability; value = 94.7%
Compound = NCCCC[C@H](NC(=O)[C@H](Cc1ccc(O)cc1)NC(=O)[C@H](CCCCN)NC(=O)[C@H](Cc1c[nH]c2ccccc12)NC(=O)[C@H](Cc1ccccc1)NC(=O)[C@H](Cc1ccccc1)NC(=O)Cc1ccc(-c2ccccc2)cc1)C(=O)NCC(=O)N[C@@H](Cc1c[nH]cn1)C(=O)N1CCC[C@H]1C(=O)NCC(=O)NCC(=O)N1CCC[C@H]1C(=O)N[C@@H](CCC(N)=O)C(=O)N[C@@H](CC(=O)O)C(=O)N[C@@H](CC(=O)O)C(=O)N[C@@H](CC(=O)O)C(=O)N[C@@H](CC(=O)O)C(=O)N[C@@H](CC(=O)O)C(=O)N[C@@H](CC(=O)O)C(=O)O; assay = CCK-8; conditions = concentration not given, 24 h; measurement = cytotoxicity; value = not toxic
Compound = C=CCc1ccc(OC(=O)CSc2nnc(Cn3cnc4c3c(=O)n(C)c(=O)n4C)o2)c(OC)c1; assay = cell growth or viability, MTT; conditions = 50 µM, 24 h; measurement = viability; value = 98%
Compound = CC[C@H](C)[C@H](NC(=O)[C@H](CCCCN)NC(=O)[C@H](CCCCN)NC(=O)[C@H](Cc1ccccc1)NC(=O)[C@H](CC(C)C)NC(=O)[C@@H](CCCCN)NC(=O)[C@H](Cc1c[nH]c2ccccc12)NC(=O)[C@H](CCCCN)NC(C)=O)C(=O)NCC(=O)N[C@@H](C)C(=O)N[C@H](C(=O)N[C@@H](CC(C)C)C(=O)N[C@H](CCCCN)C(=O)N[C@H](C(=O)N[C@@H](CC(C)C)C(N)=O)C(C)C)C(C)C; assay = cell viability, MTT; conditions = 1 h, 37 °C; measurement = LD50; value = 78 µM
Compound = CC(C)[C@@H]1CC[C@@H](C)C[C@H]1OC(=O)Cn1cnc2c1c(=O)n(C)c(=O)n2C; assay = cell growth or viability, MTT; conditions = 50 µM, 24 h; measurement = viability; value = 91.4%
Compound = CCCCCCCCC/C=C\CCCc1cc(=O)c2ccccc2n1C; conditions = 48 h, 50% growth inhibition; measurement = GIC50; value = 24 ± 9 mg/L
Compound = CC[C@H](C)[C@H](NC(=O)[C@@H](CCCCN)NC(=O)[C@@H](CCCCN)NC(=O)[C@H](Cc1ccccc1)NC(=O)[C@H](CC(C)C)NC(=O)[C@@H](CCCCN)NC(=O)[C@H](Cc1c[nH]c2ccccc12)NC(=O)[C@H](CCCCN)NC(C)=O)C(=O)NCC(=O)N[C@@H](C)C(=O)N[C@H](C(=O)N[C@@H](CC(C)C)C(=O)N[C@H](CCCCN)C(=O)N[C@H](CCCCN)C(=O)N[C@@H](CC(C)C)C(N)=O)C(C)C; assay = cell viability, MTT; conditions = 1 h, 37 °C; measurement = LD50; value = 131 ± 15 µM
Compound = COc1cc(C=O)ccc1OC(=O)COC(=O)Cn1cnc2c1c(=O)n(C)c(=O)n2C; assay = cell growth or viability, MTT; conditions = 50 µM, 24 h; measurement = viability; value = 90%
Compound = COC1=C[C@@H]2[C@@H]3Cc4c(Br)cc(OC)c(OC(=O)c5ccncn5)c4[C@]2(CCN3C)CC1=O; assay = cytotoxicity, MTT; conditions = 24 h; measurement = IC50; value = > 100 µM
Compound = CC1CCC(C(C)C)C(OC(=O)Cn2cc(COC(=O)Cn3cnc4c3c(=O)n(C)c(=O)n4C)nn2)C1 (stereo not drawn); assay = cell growth or viability, MTT; conditions = 50 µM, 24 h; measurement = viability; value = 86%
Compound = CC(C)[C@@H]1NC(=O)CNC(=O)[C@H](CC(N)=O)NC(=O)[C@H](CCCNC(=N)N)NC(=O)[C@H](Cc2ccc(O)cc2)NC(=O)[C@H](C(C)C)NC(=O)[C@@H](NC(=O)[C@@H](NC(=O)[C@H](CC(N)=O)NC(=O)[C@H](Cc2c[nH]c3ccccc23)NC(=O)[C@H](C)NC(=O)[C@H](Cc2ccccc2)NC(=O)CNC(=O)[C@H](CCCCN)NC(=O)[C@H](Cc2ccccc2)NC(=O)[C@H](Cc2ccccc2)NC(=O)[C@H](CCCCN)NC(=O)OCC2c3ccccc3-c3ccccc32)C(C)C)CSSC[C@@H](C(=O)N[C@@H](Cc2c[nH]cn2)C(=O)N[C@@H](CCCNC(=N)N)C(=O)N[C@@H](CCCNC(=N)N)C(=O)N[C@@H](C)C(=O)N[C@@H](CC(N)=O)C(N)=O)NC(=O)[C@H](C(C)C)NC(=O)[C@H](CCCNC(=N)N)NC1=O; assay = CCK-8; conditions = up to 128 µM, 12 h; measurement = viability; value = > 90%
Compound = COC1=C[C@@H]2[C@@H]3Cc4ccc(OC)c(OC(=O)c5nc(C)c(C)nc5C)c4[C@]2(CCN3C)CC1=O; assay = cytotoxicity, MTT; conditions = 24 h; measurement = IC50; value = 17.9 ± 2.24 µM
Compound = O=C(/C=C/CF)O[C@@H]1COC(=O)C1; assay = cytotoxicity; measurement = IC50; value = 128 µM

A few entries again:
Compound = CC(C)[C@@H]1NC(=O)CNC(=O)[C@H](CC(N)=O)NC(=O)[C@H](CCCNC(=N)N)NC(=O)[C@H](Cc2ccc(O)cc2)NC(=O)[C@H](C(C)C)NC(=O)[C@@H](NC(=O)[C@@H](NC(=O)[C@H](CC(N)=O)NC(=O)[C@H](Cc2c[nH]c3ccccc23)NC(=O)[C@H](C)NC(=O)[C@H](Cc2ccccc2)NC(=O)CNC(=O)[C@H](CCCCN)NC(=O)[C@H](Cc2ccccc2)NC(=O)[C@H](Cc2ccccc2)NC(=O)[C@H](CCCCN)NC(=O)OCC2c3ccccc3-c3ccccc32)C(C)C)CSSC[C@@H](C(=O)N[C@@H](Cc2c[nH]cn2)C(=O)N[C@@H](CCCNC(=N)N)C(=O)N[C@@H](CCCNC(=N)N)C(=O)N[C@@H](C)C(=O)N[C@@H](CC(N)=O)C(N)=O)NC(=O)[C@H](C(C)C)NC(=O)[C@H](CCCNC(=N)N)NC1=O; assay = CCK-8; conditions = up to 128 µM, 12 h; measurement = viability; value = > 90%
Compound = Cc1ccc(C(C)C)c(OC(=O)CSc2nnc(Cn3cnc4c3c(=O)n(C)c(=O)n4C)o2)c1; assay = cell growth or viability, MTT; conditions = 50 µM, 24 h; measurement = viability; value = 93%
Compound = COC1=C[C@@H]2[C@@H]3Cc4ccc(OC)c(OC(=O)c5ccnnc5)c4[C@]2(CCN3C)CC1=O; assay = cytotoxicity, MTT; conditions = 24 h; measurement = IC50; value = > 100 µM
